Published values gathered from unrelated publications.
Lines come from different studies, so protocols differ.
Organism: Streptococcus pneumoniae

Structure (SMILES)	assay	test system	setting	MIC
Oc1c(Br)cc(Br)c2nc3cc(Cl)ccc3nc12	broth microdilution	6303		0.1 µM
CC[C@H](C)[C@@H]1NC(=O)[C@H](CO)NC(=O)[C@H](CCCCN)NC(=O)[C@@H]2CSSC[C@@H](C(=O)N[C@@H](Cc3ccc(O)cc3)C(N)=O)NC(=O)[C@H](CCCCN)NC(=O)[C@@H]3CSSC[C@H](NC(=O)[C@H](CCCNC(=N)N)NC(=O)[C@H](CC(C)C)NC(=O)[C@H](CC(=O)O)NC(=O)[C@H](CC(=O)O)NC(=O)[C@H](CCC(=O)O)NC(=O)[C@H](CC(N)=O)NC(=O)[C@H](Cc4c[nH]c5ccccc45)NC(=O)C(C)(CC)NC(=O)CNC(=O)[C@H](CC(N)=O)NC(=O)[C@@H](NC(=O)CNC(=O)[C@H](Cc4ccccc4)NC(=O)CN)CSSC[C@H](NC(=O)[C@H](Cc4ccc(O)cc4)NC(=O)CNC(=O)CNC(=O)[C@H](CCCCN)NC(=O)[C@H](Cc4ccc(O)cc4)NC(=O)[C@H]4CCCN4C(=O)[C@@H]4CCCN4C1=O)C(=O)N[C@@H](C)C(=O)N[C@@H](CCCCN)C(=O)N1CCC[C@@H]1C(=O)NCC(=O)N[C@@H](Cc1ccccc1)C(=O)N[C@@H](C(C)C)C(=O)N3)C(=O)N[C@@H](Cc1c[nH]cn1)C(=O)N[C@@H](CC(N)=O)C(=O)N[C@@H](Cc1c[nH]cn1)C(=O)N2 (stereo partly drawn)	broth microdilution	D39	18 h	0.5 µM
c1ccc2c(c1)nc(CNCC13CC4CC(CC(C4)C1)C3)n2CC1CCCCC1		ATCC 49619		2 µg/mL
CN[C@@H]1[C@H](O)[C@H](NC)[C@H]2O[C@]3(O)[C@H](O[C@@H]2[C@H]1O)O[C@H](C)C[C@H]3NC(=O)Cc1ccccn1	microbial growth, broth dilution	DAW27		100 µg/mL
CC[C@H](C)[C@@H]1NC(=O)[C@H](CO)NC(=O)C(C)(CCCCN)NC(=O)[C@@H]2CSSC[C@@H](C(=O)N[C@@H](Cc3ccc(O)cc3)C(N)=O)NC(=O)[C@H](CCCCN)NC(=O)[C@@H]3CSSC[C@H](NC(=O)[C@H](CCCNC(=N)N)NC(=O)C(C)(CC(C)C)NC(=O)[C@H](CC(=O)O)NC(=O)[C@H](CC(=O)O)NC(=O)[C@H](CCC(=O)O)NC(=O)[C@H](CC(N)=O)NC(=O)[C@H](Cc4c[nH]c5ccccc45)NC(=O)C(C)(CC)NC(=O)CNC(=O)[C@H](CC(N)=O)NC(=O)[C@@H](NC(=O)CNC(=O)[C@H](Cc4ccccc4)NC(=O)CN)CSSC[C@H](NC(=O)[C@H](Cc4ccc(O)cc4)NC(=O)CNC(=O)CNC(=O)[C@H](CCCCN)NC(=O)[C@H](Cc4ccc(O)cc4)NC(=O)[C@H]4CCCN4C(=O)[C@@H]4CCCN4C1=O)C(=O)N[C@@H](C)C(=O)N[C@@H](CCCCN)C(=O)N1CCC[C@@H]1C(=O)NCC(=O)N[C@@H](Cc1ccccc1)C(=O)N[C@@H](C(C)C)C(=O)N3)C(=O)N[C@@H](Cc1c[nH]cn1)C(=O)NC(C)(C)C(=O)N[C@@H](Cc1c[nH]cn1)C(=O)N2 (stereo partly drawn)	broth microdilution	BS-444	18 h	2 µM
CN[C@@H]1[C@H](O)[C@H](NC)[C@H]2O[C@]3(O)[C@H](O[C@@H]2[C@H]1O)O[C@H](C)C[C@H]3NC(=O)CNC(C)(C)C	microbial growth, broth dilution	DAW27		200 µg/mL
Oc1c(Br)cc(Br)c2nc3cc(Cl)ccc3nc12	broth microdilution	6303	16 h, 37 °C	0.3 µM
c1ccc2c(c1)nc(CNCC13CC4CC(CC(C4)C1)C3)n2CC1CCC1		ATCC 49619		4 µg/mL
c1ccc(CCNC2CCCc3c2[nH]c2ccc(C4CCCCC4)cc32)cc1 (stereo not drawn)	broth microdilution	serotype 4 T4, supplemented C+Y medium		1.3 µg/mL
CC[C@H](C)[C@@H]1NC(=O)[C@H](CC(C)C)NC(=O)[C@@H](NC(=O)[C@H](CCC(N)=O)NC(=O)[C@H](CCCCN)NC(=O)[C@H](CC(N)=O)NC(=O)[C@H](Cc2ccc(O)cc2)NC(=O)[C@@H]2CCC(=O)NCC(=O)NCC(=O)NCC(=O)NCC(=O)N[C@@H](CCCNC(=N)N)C(=O)NCC(=O)N[C@@H](Cc3ccc(O)cc3)C(=O)N2)CSSC[C@@H](C(=O)O)NC(=O)[C@H](Cc2ccccc2)NC1=O	broth microdilution	ATCC 49619, penicillin intermediate	overnight, 37 °C	> 128 µg/mL
CC[C@H](C)[C@@H]1NC(=O)[C@H](CO)NC(=O)C(C)(CCCCN)NC(=O)[C@@H]2CSSC[C@@H](C(=O)N[C@@H](Cc3ccc(O)cc3)C(N)=O)NC(=O)[C@H](CCCCN)NC(=O)[C@@H]3CSSC[C@H](NC(=O)[C@H](CCCNC(=N)N)NC(=O)C(C)(CC(C)C)NC(=O)[C@H](CC(=O)O)NC(=O)[C@H](CC(=O)O)NC(=O)[C@H](CCC(=O)O)NC(=O)[C@H](CC(N)=O)NC(=O)[C@H](Cc4c[nH]c5ccccc45)NC(=O)[C@@H]4CCCN4C(=O)CNC(=O)[C@H](CC(N)=O)NC(=O)[C@@H](NC(=O)CNC(=O)[C@H](Cc4ccccc4)NC(=O)CN)CSSC[C@H](NC(=O)[C@H](Cc4ccc(O)cc4)NC(=O)CNC(=O)CNC(=O)[C@H](CCCCN)NC(=O)[C@H](Cc4ccc(O)cc4)NC(=O)CNC(=O)[C@H](CCCCN)NC1=O)C(=O)N[C@@H](C)C(=O)N[C@@H](CCCCN)C(=O)NCC(=O)NCC(=O)N[C@@H](Cc1ccccc1)C(=O)N[C@@H](C(C)C)C(=O)N3)C(=O)N[C@@H](Cc1c[nH]cn1)C(=O)NC(C)(C)C(=O)N[C@@H](Cc1c[nH]cn1)C(=O)N2 (stereo partly drawn)	broth microdilution	BS-441	18 h	0.5 µM
CC[C@H](C)[C@H](NC(=O)[C@H](CCCCN)NC(=O)[C@H](CCCCN)NC(=O)[C@H](Cc1ccccc1)NC(=O)[C@H](Cc1ccccc1)NC(=O)[C@H](CCCCN)NC(=O)[C@H](CCCCN)NC(=O)[C@H](Cc1ccccc1)NC(=O)[C@H](CCCNC(=N)N)NC(=O)[C@@H](N)CCCCN)C(=O)N[C@@H](CCCCN)C(=O)N[C@@H](CCCCN)C(=O)N[C@@H](CO)C(=O)N[C@H](C(=O)N[C@@H](CCCCN)C(=O)N[C@@H](CCCCN)C(=O)N[C@@H](CCCNC(=N)N)C(=O)N[C@H](C(=O)N[C@@H](CCCCN)C(=O)N[C@@H](CCCCN)C(=O)N[C@@H](CC(C)C)C(=O)N[C@@H](Cc1ccccc1)C(=O)N[C@@H](CCCCN)C(=O)N[C@@H](CCCCN)C(=O)N1CCC[C@H]1C(=O)N[C@@H](CCCNC(=N)N)C(=O)N[C@H](C(=O)N[C@H](C(=O)N1CCC[C@H]1C(=O)N[C@H](C(=O)N[C@@H](CO)C(=O)N[C@H](C(=O)N1CCC[C@H]1C(=O)N[C@@H](Cc1ccccc1)C(=O)O)[C@@H](C)CC)[C@@H](C)CC)[C@@H](C)CC)C(C)C)C(C)C)C(C)C	broth microdilution	ATCC 49619, THY broth	20 h, 37 °C, 5% CO2	16 µg/mL

Some of these lines once more:
Structure (SMILES)	assay	test system	setting	MIC
CC[C@H](C)[C@@H]1NC(=O)[C@H](CO)NC(=O)C(C)(CCCCN)NC(=O)[C@@H]2CSSC[C@@H](C(=O)N[C@@H](Cc3ccc(O)cc3)C(N)=O)NC(=O)[C@H](CCCCN)NC(=O)[C@@H]3CSSC[C@H](NC(=O)[C@H](CCCNC(=N)N)NC(=O)C(C)(CC(C)C)NC(=O)[C@H](CC(=O)O)NC(=O)[C@H](CC(=O)O)NC(=O)[C@H](CCC(=O)O)NC(=O)[C@H](CC(N)=O)NC(=O)[C@H](Cc4c[nH]c5ccccc45)NC(=O)C(C)(CC)NC(=O)CNC(=O)[C@H](CC(N)=O)NC(=O)[C@@H](NC(=O)CNC(=O)[C@H](Cc4ccccc4)NC(=O)CN)CSSC[C@H](NC(=O)[C@H](Cc4ccc(O)cc4)NC(=O)CNC(=O)CNC(=O)[C@H](CCCCN)NC(=O)[C@H](Cc4ccc(O)cc4)NC(=O)[C@H]4CCCN4C(=O)[C@@H]4CCCN4C1=O)C(=O)N[C@@H](C)C(=O)N[C@@H](CCCCN)C(=O)N1CCC[C@@H]1C(=O)NCC(=O)N[C@@H](Cc1ccccc1)C(=O)N[C@@H](C(C)C)C(=O)N3)C(=O)N[C@@H](Cc1c[nH]cn1)C(=O)NC(C)(C)C(=O)N[C@@H](Cc1c[nH]cn1)C(=O)N2 (stereo partly drawn)	broth microdilution	BS-444	18 h	2 µM
